# Measured values gathered from unrelated publications.
# Amino acid sequences for entries named in this document (tags omitted). Residues count along the entry.
# UniProt Q07440, whole entry P104K/C113S, looked up: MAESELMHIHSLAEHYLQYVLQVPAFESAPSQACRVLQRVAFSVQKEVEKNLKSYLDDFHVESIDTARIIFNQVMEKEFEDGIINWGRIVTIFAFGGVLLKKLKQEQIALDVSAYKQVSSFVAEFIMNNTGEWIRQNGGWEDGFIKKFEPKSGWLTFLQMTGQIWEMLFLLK
# UniProt P45983, 1-384 isoform 3: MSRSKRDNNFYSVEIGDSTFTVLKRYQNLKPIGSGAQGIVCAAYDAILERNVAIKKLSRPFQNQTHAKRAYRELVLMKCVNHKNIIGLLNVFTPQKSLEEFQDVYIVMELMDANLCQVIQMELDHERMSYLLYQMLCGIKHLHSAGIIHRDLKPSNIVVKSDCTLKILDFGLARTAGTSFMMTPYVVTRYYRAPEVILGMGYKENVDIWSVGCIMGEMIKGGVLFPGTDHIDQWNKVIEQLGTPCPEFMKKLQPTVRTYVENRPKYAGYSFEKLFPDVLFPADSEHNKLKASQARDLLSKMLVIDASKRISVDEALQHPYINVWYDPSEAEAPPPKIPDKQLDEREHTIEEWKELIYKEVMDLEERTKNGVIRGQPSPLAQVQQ
# UniProt Q13304, whole entry: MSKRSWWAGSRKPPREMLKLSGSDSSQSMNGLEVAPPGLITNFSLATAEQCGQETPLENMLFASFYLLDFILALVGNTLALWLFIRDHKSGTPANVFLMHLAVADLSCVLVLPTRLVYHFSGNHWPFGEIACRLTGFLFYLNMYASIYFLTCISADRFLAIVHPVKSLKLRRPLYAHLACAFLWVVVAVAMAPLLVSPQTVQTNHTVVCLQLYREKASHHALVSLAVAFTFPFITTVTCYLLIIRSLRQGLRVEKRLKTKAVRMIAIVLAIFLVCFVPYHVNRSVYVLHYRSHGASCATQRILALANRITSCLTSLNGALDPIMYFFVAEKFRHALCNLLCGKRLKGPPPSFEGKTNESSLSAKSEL
# UniProt Q15831, whole entry: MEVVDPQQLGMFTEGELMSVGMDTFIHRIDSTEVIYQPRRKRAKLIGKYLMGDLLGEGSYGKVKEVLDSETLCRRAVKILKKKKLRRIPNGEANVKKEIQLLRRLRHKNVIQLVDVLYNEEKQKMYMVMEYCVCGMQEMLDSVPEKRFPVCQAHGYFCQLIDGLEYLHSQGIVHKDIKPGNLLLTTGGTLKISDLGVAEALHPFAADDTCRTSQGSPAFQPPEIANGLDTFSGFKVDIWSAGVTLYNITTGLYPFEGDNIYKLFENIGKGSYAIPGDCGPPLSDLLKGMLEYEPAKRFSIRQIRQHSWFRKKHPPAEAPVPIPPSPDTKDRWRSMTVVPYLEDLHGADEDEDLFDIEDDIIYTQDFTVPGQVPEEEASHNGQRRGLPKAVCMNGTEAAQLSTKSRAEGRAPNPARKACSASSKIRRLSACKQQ
# UniProt O14757, whole entry: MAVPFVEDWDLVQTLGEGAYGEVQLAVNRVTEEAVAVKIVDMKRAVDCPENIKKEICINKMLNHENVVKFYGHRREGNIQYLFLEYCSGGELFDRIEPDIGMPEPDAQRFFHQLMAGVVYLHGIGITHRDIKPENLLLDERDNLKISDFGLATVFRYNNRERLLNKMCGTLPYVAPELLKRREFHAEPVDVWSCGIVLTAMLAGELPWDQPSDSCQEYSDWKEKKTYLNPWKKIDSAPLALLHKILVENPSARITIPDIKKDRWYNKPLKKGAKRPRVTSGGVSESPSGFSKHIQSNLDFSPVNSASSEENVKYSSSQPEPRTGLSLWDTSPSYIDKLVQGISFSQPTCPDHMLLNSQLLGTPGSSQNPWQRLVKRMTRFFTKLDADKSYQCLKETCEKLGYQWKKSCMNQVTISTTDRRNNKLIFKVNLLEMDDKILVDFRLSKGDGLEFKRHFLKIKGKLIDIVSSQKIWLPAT
# UniProt P26038, whole entry, looked up: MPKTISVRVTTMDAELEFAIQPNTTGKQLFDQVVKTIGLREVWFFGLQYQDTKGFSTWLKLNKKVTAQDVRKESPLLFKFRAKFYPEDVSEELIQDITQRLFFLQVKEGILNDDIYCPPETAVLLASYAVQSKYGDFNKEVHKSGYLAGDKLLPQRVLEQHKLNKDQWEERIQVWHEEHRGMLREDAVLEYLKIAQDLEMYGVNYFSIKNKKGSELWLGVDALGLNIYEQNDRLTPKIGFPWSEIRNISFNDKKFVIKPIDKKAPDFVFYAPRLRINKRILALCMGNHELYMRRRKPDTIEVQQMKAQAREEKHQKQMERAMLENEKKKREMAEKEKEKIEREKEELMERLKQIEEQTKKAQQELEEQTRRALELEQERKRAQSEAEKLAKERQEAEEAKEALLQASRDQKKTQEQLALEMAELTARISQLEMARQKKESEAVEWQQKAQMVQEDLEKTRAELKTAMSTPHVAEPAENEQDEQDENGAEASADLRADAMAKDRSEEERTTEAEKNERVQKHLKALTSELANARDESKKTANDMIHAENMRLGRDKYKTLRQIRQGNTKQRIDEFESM
# UniProt O00167, whole entry: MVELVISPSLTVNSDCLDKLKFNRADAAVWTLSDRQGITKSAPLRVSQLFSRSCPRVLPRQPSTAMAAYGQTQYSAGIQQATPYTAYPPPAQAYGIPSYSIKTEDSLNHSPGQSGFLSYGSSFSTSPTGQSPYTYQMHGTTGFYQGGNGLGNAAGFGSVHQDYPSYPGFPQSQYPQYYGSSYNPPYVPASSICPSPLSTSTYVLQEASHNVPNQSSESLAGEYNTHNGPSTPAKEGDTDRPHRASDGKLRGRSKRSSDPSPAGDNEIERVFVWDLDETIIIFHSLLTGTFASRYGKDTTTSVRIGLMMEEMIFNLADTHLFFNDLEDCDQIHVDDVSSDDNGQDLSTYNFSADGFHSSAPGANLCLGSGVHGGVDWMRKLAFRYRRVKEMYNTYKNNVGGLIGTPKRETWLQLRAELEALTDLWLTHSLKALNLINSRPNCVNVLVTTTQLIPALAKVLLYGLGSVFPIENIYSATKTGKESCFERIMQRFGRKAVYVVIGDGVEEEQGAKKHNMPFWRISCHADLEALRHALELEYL
# UniProt B2RXH2, whole entry: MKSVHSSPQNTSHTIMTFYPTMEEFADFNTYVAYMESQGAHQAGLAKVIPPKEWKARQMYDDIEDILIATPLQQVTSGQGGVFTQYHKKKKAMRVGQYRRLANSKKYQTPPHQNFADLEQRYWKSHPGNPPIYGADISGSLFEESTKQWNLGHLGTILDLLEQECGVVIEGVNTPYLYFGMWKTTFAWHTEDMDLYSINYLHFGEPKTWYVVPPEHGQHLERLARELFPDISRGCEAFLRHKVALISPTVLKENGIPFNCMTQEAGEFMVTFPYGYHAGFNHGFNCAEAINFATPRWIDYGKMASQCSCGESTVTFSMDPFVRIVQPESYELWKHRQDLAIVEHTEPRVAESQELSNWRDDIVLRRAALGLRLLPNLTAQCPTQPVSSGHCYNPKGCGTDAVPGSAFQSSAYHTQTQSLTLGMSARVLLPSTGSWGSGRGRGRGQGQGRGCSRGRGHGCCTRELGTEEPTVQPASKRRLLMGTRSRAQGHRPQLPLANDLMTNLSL
# UniProt P0DMV8, whole entry: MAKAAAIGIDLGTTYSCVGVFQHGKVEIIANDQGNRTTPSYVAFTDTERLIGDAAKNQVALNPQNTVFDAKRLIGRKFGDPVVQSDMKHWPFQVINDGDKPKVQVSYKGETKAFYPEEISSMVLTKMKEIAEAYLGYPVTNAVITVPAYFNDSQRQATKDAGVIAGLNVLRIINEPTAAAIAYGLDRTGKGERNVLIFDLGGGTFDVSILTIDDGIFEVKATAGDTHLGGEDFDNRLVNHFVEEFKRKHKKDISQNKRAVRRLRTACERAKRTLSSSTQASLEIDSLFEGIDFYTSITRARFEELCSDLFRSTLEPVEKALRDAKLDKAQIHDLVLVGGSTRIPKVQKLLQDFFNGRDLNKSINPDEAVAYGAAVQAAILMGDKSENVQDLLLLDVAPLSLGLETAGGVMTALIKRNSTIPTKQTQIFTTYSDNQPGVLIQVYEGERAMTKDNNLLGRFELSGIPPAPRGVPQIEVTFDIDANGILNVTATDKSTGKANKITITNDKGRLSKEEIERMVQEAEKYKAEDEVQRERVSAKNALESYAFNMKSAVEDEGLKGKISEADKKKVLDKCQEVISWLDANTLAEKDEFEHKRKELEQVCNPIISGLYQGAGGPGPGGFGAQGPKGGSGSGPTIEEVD
# UniProt P29466, whole entry, looked up: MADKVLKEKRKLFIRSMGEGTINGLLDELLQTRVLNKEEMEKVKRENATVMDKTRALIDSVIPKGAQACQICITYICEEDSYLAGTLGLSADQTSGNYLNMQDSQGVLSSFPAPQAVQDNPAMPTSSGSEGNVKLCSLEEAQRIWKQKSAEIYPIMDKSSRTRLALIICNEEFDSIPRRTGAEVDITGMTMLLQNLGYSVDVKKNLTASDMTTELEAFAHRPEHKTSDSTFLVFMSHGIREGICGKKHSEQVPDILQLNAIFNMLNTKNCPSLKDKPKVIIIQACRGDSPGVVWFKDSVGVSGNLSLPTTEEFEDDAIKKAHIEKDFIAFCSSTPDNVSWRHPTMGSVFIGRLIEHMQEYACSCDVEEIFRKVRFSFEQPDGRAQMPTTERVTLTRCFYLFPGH
# UniProt P12931, whole entry: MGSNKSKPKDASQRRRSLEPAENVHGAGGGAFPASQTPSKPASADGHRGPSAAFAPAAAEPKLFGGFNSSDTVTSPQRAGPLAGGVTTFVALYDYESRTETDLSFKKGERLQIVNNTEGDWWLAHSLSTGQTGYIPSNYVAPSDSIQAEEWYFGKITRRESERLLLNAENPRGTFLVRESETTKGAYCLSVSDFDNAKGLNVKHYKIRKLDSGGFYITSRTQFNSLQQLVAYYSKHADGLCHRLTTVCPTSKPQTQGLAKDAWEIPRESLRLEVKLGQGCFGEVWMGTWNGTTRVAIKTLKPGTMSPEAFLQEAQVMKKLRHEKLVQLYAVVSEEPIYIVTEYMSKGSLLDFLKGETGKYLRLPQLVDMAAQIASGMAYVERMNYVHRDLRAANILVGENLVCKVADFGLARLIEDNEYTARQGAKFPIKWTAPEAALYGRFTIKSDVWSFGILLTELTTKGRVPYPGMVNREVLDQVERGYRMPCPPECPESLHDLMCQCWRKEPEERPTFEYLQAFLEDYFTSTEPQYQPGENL
# UniProt P03372, whole entry: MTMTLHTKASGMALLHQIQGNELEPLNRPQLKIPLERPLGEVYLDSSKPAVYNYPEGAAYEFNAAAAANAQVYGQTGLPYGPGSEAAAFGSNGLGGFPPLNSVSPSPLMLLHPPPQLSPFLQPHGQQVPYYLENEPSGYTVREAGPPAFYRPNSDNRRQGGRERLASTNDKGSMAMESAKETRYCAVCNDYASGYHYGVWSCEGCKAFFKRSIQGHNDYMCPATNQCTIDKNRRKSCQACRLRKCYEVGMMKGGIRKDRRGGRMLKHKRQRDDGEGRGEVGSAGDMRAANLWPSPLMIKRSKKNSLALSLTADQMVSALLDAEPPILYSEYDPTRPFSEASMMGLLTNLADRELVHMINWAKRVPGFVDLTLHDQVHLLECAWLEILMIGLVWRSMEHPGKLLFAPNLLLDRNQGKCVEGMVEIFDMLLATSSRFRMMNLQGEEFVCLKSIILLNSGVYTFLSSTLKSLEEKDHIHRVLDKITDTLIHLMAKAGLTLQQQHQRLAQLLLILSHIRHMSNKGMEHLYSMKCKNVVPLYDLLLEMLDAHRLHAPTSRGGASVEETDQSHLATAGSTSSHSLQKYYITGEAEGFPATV
# UniProt P05067, whole entry, looked up: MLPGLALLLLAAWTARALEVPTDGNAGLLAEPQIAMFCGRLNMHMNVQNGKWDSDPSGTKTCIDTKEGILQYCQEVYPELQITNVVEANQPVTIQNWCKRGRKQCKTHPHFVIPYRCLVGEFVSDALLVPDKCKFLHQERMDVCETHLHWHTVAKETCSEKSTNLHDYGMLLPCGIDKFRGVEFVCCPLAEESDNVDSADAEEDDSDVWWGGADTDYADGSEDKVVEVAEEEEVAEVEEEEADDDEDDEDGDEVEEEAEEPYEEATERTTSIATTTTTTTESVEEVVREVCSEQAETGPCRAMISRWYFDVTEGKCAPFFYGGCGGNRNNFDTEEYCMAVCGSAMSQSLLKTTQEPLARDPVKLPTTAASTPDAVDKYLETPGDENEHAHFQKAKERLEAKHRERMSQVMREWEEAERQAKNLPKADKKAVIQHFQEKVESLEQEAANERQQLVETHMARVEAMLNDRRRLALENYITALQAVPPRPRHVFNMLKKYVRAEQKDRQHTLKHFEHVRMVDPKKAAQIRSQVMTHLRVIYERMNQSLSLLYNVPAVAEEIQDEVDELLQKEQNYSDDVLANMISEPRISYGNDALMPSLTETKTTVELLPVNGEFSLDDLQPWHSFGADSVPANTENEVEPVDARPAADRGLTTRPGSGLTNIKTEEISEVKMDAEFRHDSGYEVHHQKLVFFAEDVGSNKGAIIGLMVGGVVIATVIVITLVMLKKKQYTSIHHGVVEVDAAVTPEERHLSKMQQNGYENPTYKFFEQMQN
# Lines come from different studies, so protocols differ. “And” joins repeats or separate records; there may be more than shown. Numbers after ± are the reported error.
Compound,tested on,test,system,setting,how to read,measurement,value
Cc1ccc(N=Nc2c(O)c(S(=O)(=O)O)cc3cc(S(=O)(=O)O)ccc23)c(C)c1,"Bcl-2-related protein A1 (Mus musculus, UniProt Q07440, C113S/P104K)","binding, fluorescence polarization",,together with: FITC-Noxa peptide,,IC50,> 400 µM
COc1ccc([C@@H](CCc2ccc(O)cc2OC)c2cc3c(c(C)c2O)O[C@H](c2ccc(O)cc2)CC3)cc1,"Polyunsaturated fatty acid 5-lipoxygenase (ALOX5, Homo sapiens, UniProt P09917)",enzyme activity,cell-free,,,IC50,0.8 µM
COc1cc([C@@H]2c3cc4c(cc3[C@H](C=C(C)C)[C@H]3COC(=O)[C@H]23)OCO4)cc(OC)c1OC,Leishmania infantum,iRFP fluorescence,"mouse splenocytes infected, amastigote, iRFP, ex vivo splenic explant",48 h,,EC50,7.4 ± 0.4 µM
COC(=O)[C@@]1(C)C=C(C(=O)Nc2cccc(C(=O)NC34CC(Nc5nccc(-c6cccnc6)n5)(C3)C4)c2)C(=O)CC1,"Mitogen-activated protein kinase 8 (MAPK8, Homo sapiens, UniProt P45983)","kinase activity, inhibitor",,"0.06097 µM, unit not given, together with: 10 mM GSH",baseline: DMSO,remaining activity,0.296
Nc1ccccc1C(=O)N1C[C@H](O)C[C@H]1C(=O)NCc1ccc(Cl)cc1,"von Hippel-Lindau disease tumor suppressor, with elongin B, C (VHL, Homo sapiens, UniProt P40337)","binding, fluorescence polarization",,"10% DMSO, together with: FAM-HIF1α peptide tracer",,IC50,38 ± 1 µM
O=C(Nc1cccc(-c2cc[nH]n2)c1)C(NS(=O)(=O)c1cccs1)c1ccccc1 (centres unmarked),"Uracil nucleotide/cysteinyl leukotriene receptor, long isoform (GPR17, Homo sapiens, UniProt Q13304)","calcium mobilization, antagonist",1321-N1,,,IC50,11.7 ± 0.42 µM
O=C(CCl)Nc1ccc2c(Nc3ccccc3)ncnc2c1,"Serine/threonine-protein kinase STK11 (STK11, Homo sapiens, UniProt Q15831)","enzyme activity, inhibitor",,,,IC50,> 10 µM
CC(=O)Nc1ccc(-c2nc(C)c(CSc3ccc(OCC(=O)O)c(C)c3)s2)cc1,HEK293T,,,18 h,,CC50,> 100 µM
NC(N)=NN=C1CCCc2cc(NC(=O)c3cc4cccc([N+](=O)[O-])c4[nH]3)ccc21,"Serine/threonine-protein kinase Chk1 (CHEK1, Homo sapiens, UniProt O14757)","kinase activity, inhibitor, IMAP fluorescence polarization",,,,IC50,36 µM
Fc1ccc2[nH]cc(/C=C/c3ccncc3)c2c1,"Indoleamine 2,3-dioxygenase 1 (IDO1, Homo sapiens, UniProt P14902)","enzyme activity, inhibitor",,,,IC50,16.5 µM
O=C(Nc1ccc(-c2nc3ccccc3s2)cc1)C1CCOCC1,"Moesin, with CD44 (Homo sapiens, UniProt P26038)","MSN-CD44 interaction, inhibitor, TR-FRET",,together with: CD44,,IC50,> 100 µM
O=C(N/N=C/c1ccc(Sc2ncccn2)s1)c1cccc(F)c1,"Protein phosphatase EYA2 (Homo sapiens, UniProt O00167)","tyrosine phosphatase activity, inhibitor",,,,IC50,0.11 µM
COC(=O)[C@@H]1C(C=Nc2cc(Cl)ccc2O)=Cc2cc3c(cc2[C@H]1c1cc(OC)c(OC)c(OC)c1)OCO3,Leishmania,,mouse splenocytes,,baseline: CC50 over amastigote EC50,selectivity index,1.5
O=C(O)c1cc(C(=O)N2CCC[C@H]2C(=O)O)cc([C@H]2CCN[C@@H]2C(=O)O)c1,kainate receptor (rat),"binding, radioligand binding",rat cortical synaptosomes,together with: [3H]kainate,,IC50,10 to 50 µM
COc1ccc(CNc2c(C(=O)O)ccnc2C(=O)O)cc1,"Lysine-specific demethylase 4E (KDM4E, Homo sapiens, UniProt B2RXH2)","inhibitor, FDH-coupled spectrophotometry, item: formaldehyde",,,,IC50,41 µM
C[C@@H]1CN(c2c(C#N)c(=O)n(C)c3ccccc23)[C@@H](C)CN1Cc1cn(S(=O)(=O)c2ccccc2)nn1,"Diacylglycerol kinase alpha (DGKA, Homo sapiens, UniProt P23743)","enzyme activity, inhibitor, ADP-Glo",,together with: DAG micelles,,IC50,1.89 µM
CCn1c(=Cc2cccc[n+]2C)sc(=C2Sc3ccccc3N2C)c1=O,"Heat shock 70 kDa protein 1A, with BAG2 (HSPA1A, Homo sapiens, UniProt P0DMV8)","Hsp70-Bag2 interaction, inhibitor, flow cytometry (FCPIA)",,together with: labeled Bag2 50 nM,,IC50,39 ± 4 µM
O=C(CCl)N1CCN(c2cc(N3CCCC3)nc(N3CCCC3)n2)CC1,"Caspase-1 (CASP1, Homo sapiens, UniProt P29466)","enzyme activity, inhibitor",,"30 min preincubation, together with: Ac-WEHD-AMC 10 µM",,IC50,0.144 µM and 0.134 µM
O=C(O)c1csc(-n2nc(-c3ccccc3)cc2C(F)(F)F)n1,"L-lactate dehydrogenase A chain (LDHA, Homo sapiens, UniProt P00338)","enzyme activity, inhibitor",,,,IC50,33.5 µM
COC(C)(C)Cn1cc(-c2ccc3cc(OC4CC4)ccc3c2)c2c(N)ncnc21,"Proto-oncogene tyrosine-protein kinase Src (SRC, Homo sapiens, UniProt P12931)","enzyme activity, inhibitor, Kinase-Glo",,,,IC50,> 10 µM
O=C(CCCn1c(=S)[nH]c2ccccc2c1=O)N1CCN(c2cccc(C(F)(F)F)c2)CC1,"Estrogen receptor (ESR1, Homo sapiens, UniProt P03372)","reporter gene, coactivator binding inhibitor, luciferase reporter",HEC-1 cells transfected with ERα,"partial inhibition, together with: estradiol 1 nM",,IC50,35 µM
COC(=O)/C(=C/c1c[nH]c2ccc(OC)cc12)c1ccc(F)cc1,"Amyloid-beta precursor protein, amyloid-beta peptide (APP, Homo sapiens, UniProt P05067)","Aβ42 oligomerisation, ELISA",,,,IC50,> 20 µM
COc1cc2nccc(Nc3ccc(OCc4cccc(F)c4)c(Cl)c3)c2cc1OC,"Serine/threonine-protein kinase N3 (PKN3, Homo sapiens, UniProt Q6P5Z2)","binding, split-luciferase",,,,IC50,8.2 µM

# Repeated from above:
Compound,tested on,test,system,setting,how to read,measurement,value
COC(=O)[C@@H]1C(C=Nc2cc(Cl)ccc2O)=Cc2cc3c(cc2[C@H]1c1cc(OC)c(OC)c(OC)c1)OCO3,Leishmania,,mouse splenocytes,,baseline: CC50 over amastigote EC50,selectivity index,1.5
O=C(O)c1cc(C(=O)N2CCC[C@H]2C(=O)O)cc([C@H]2CCN[C@@H]2C(=O)O)c1,kainate receptor (rat),"binding, radioligand binding",rat cortical synaptosomes,together with: [3H]kainate,,IC50,10 to 50 µM
COc1ccc(CNc2c(C(=O)O)ccnc2C(=O)O)cc1,"Lysine-specific demethylase 4E (KDM4E, Homo sapiens, UniProt B2RXH2)","inhibitor, FDH-coupled spectrophotometry, item: formaldehyde",,,,IC50,41 µM
